{"data": "Results gathered from unrelated publications", "cell line": "DU-145", "note": "Lines come from different studies, so protocols differ. Several values in a cell are separate wells, animals, samples, runs or records."}
{"SMILES": "CCn1cc(-c2cc(Cn3ccnc3)cc3c2CCN([C@H](c2cc(OC)ccn2)C2CC2)C3=O)c(C(F)(F)F)n1", "assay": "cell growth, inhibitor", "conditions": "120 h", "endpoint": "EC50", "result": "> 30 µM"}
{"SMILES": "COc1cccc2c1C(=O)c1c(O)c3c(c(O)c1C2=O)C[C@@](O)(C(=O)CO)C[C@@H]3O[C@H]1C[C@H](N)[C@H](O)[C@H](C)O1", "assay": "cell growth, sulforhodamine B", "endpoint": "IC50", "result": "0.76 µM and 0.18 µM and 0.48 µM"}
{"SMILES": "CCCCCCCCCCCCCC(=O)N[C@@H](CCSC)C(=O)N[C@@H](C)C(=O)N[C@@H](CO)C(=O)N[C@@H](CCCNC(=N)N)C(=O)NCC(=O)N[C@@H](C)C(=O)N[C@@H](CC(C)C)C(=O)N[C@@H](CCCNC(=N)N)C(=O)N[C@@H](CCCNC(=N)N)C(=O)N[C@@H](CS)C(=O)N[C@@H](CC(C)C)C(=O)N[C@@H](CO)C(=O)N1CCC[C@H]1C(=O)NCC(=O)N[C@@H](CC(C)C)C(=O)N1CCC[C@H]1C(=O)N[C@@H](CCCNC(=N)N)C(=O)N[C@@H](CC(C)C)C(=O)N[C@@H](CC(C)C)C(=O)N[C@@H](Cc1c[nH]cn1)C(=O)N[C@@H](CC(C)C)C(=O)N[C@@H](CO)C(=O)N[C@@H](CCCNC(=N)N)C(=O)NCC(=O)N[C@@H](CC(C)C)C(=O)N[C@@H](C)C(N)=O", "assay": "cell viability, XTT", "system": "prostate", "conditions": "concentration not given", "endpoint": "viability", "result": "no effect"}
{"SMILES": "CCCC(CCC)C(=O)OCc1cn(-c2c3ccccc3nc3ccccc23)nn1", "assay": "NCI60 single-dose screen", "conditions": "10 µM", "endpoint": "growth percentage", "result": "103%"}
{"SMILES": "CCCN1CCN(c2ccc3[nH]c(-c4ccc5[nH]c(-c6ccc(C(F)(F)F)cc6)nc5c4)nc3c2)CC1", "assay": "SRB", "conditions": "10 µM, 48 h", "endpoint": "growth percent", "result": "-95.3%"}
{"SMILES": "C#CCCCC[C@H](C)C[C@@H](C)C(=O)N1C(=O)OC[C@H]1Cc1ccccc1", "assay": "cell growth, sulforhodamine B", "endpoint": "IC50", "result": "133 µM and 232 µM and 200 µM"}
{"SMILES": "CCCCN1CCN(c2ccc3nc(-c4ccc5nc(-c6cc(OC)ccc6OC)[nH]c5c4)[nH]c3c2)CC1", "assay": "SRB", "conditions": "10 µM, 48 h", "endpoint": "growth percent", "result": "101%"}
{"SMILES": "NNc1nc(-c2ccc(Cl)cc2)c2c(NC(=O)c3ccccc3)nnc-2[nH]1", "assay": "SRB", "conditions": "10 µM, NCI60 single-dose screen, prostate cancer", "scale": "reference: untreated", "endpoint": "cell growth", "result": "103%"}
{"SMILES": "O=C1NC(=NCc2cccs2)S/C1=C\\c1ccc2ncccc2c1", "assay": "MTS", "system": "prostate cancer", "endpoint": "IC50", "result": "1.38 µM"}
{"SMILES": "CCCN1CCN(c2ccc3[nH]c(-c4ccc5[nH]c(-c6ccc(OCC)c(OCC)c6)nc5c4)nc3c2)CC1", "assay": "SRB", "conditions": "10 µM, 48 h", "endpoint": "growth percent", "result": "-64.1%"}
{"SMILES": "CCOC(=O)CSc1nc(-c2ccc(Cl)cc2)c2c(NC(=O)c3ccccc3)nnc-2[nH]1", "assay": "SRB", "conditions": "10 µM, NCI60 single-dose screen, prostate cancer", "scale": "reference: untreated", "endpoint": "cell growth", "result": "99.8%"}
{"SMILES": "C#C[C@@]1(O)[C@@H](CO)O[C@@H](n2cc(Br)c3c(N)ncnc32)[C@@H]1O", "assay": "SRB", "conditions": "NCI-60 screen", "endpoint": "TGI", "result": "> 100 µM"}
{"SMILES": "c1ccc([I+]c2ccccc2)cc1", "assay": "cell growth, trypan blue count", "conditions": "48 h", "endpoint": "IC50", "result": "> 10 µM"}
{"SMILES": "O=c1ccn(Cc2cn(-c3c4ccccc4nc4ccccc34)nn2)c(=O)[nH]1", "assay": "NCI60 single-dose screen", "conditions": "10 µM", "endpoint": "growth percentage", "result": "74.6%"}
{"SMILES": "Cc1cc(C)n(C(=S)[S][Au][PH](CCCCCC[PH]([Au][S]C(=S)n2nc(C)cc2C)(c2ccccc2)c2ccccc2)(c2ccccc2)c2ccccc2)n1", "assay": "cell growth, NCI-60 screen", "conditions": "prostate cancer", "endpoint": "log10 TGI", "result": "> -4"}
{"SMILES": "Cc1cc(=O)[nH]c(=O)n1Cc1cn(-c2cc3ccccc3oc2=O)nn1", "assay": "NCI60 single-dose screen", "conditions": "10 µM", "endpoint": "growth percentage", "result": "109%"}
{"SMILES": "CCCN1CCN(c2ccc3[nH]c(-c4ccc5[nH]c(-c6cc(OC)c(OC)c(OC)c6)nc5c4)nc3c2)CC1", "assay": "SRB", "conditions": "10 µM, 48 h", "endpoint": "growth percent", "result": "109%"}
{"SMILES": "Cc1cc(=O)[nH]n1-c1nc(-c2ccc(Cl)cc2)c2c(NC(=O)c3ccccc3)nnc-2[nH]1", "assay": "SRB", "conditions": "10 µM, NCI60 single-dose screen, prostate cancer", "scale": "reference: untreated", "endpoint": "cell growth", "result": "103%"}
{"SMILES": "C#C[C@@]1(O)[C@@H](CO)O[C@@H](n2ccc3c(N)ncnc32)[C@@H]1O", "assay": "SRB", "conditions": "NCI-60 screen", "endpoint": "TGI", "result": "6.55 µM"}
{"SMILES": "CCCCN1CCN(c2ccc3[nH]c(-c4ccc5[nH]c(-c6ccc(C(F)(F)F)cc6)nc5c4)nc3c2)CC1", "assay": "SRB", "conditions": "10 µM, 48 h", "endpoint": "growth percent", "result": "-95.5%"}
{"SMILES": "O=C(Nc1nnc2n3c(=S)[nH][nH]c3nc(-c3ccc(Cl)cc3)c1-2)c1ccccc1", "assay": "SRB", "conditions": "10 µM, NCI60 single-dose screen, prostate cancer", "scale": "reference: untreated", "endpoint": "cell growth", "result": "100%"}
{"SMILES": "CCN(CC)c1ccc(C=NNC(=O)CSc2nc3ccccc3c(=O)n2Cc2ccc(S(N)(=O)=O)cc2)c(O)c1", "assay": "NCI five-dose screen", "endpoint": "TGI", "result": "> 100 µM"}
{"SMILES": "Cc1n[nH]c2nc(-c3ccc(Cl)cc3)c3c(NC(=O)c4ccccc4)nnc-3n12", "assay": "SRB", "conditions": "10 µM, NCI60 single-dose screen, prostate cancer", "scale": "reference: untreated", "endpoint": "cell growth", "result": "106%"}
{"SMILES": "Cn1cncc1C1=CN(c2ncnc3[nH]cnc23)CCS1", "conditions": "prostate cancer", "endpoint": "GI50", "result": "19.1 µM"}
{"SMILES": "CCCCN1CCN(c2ccc3[nH]c(-c4ccc5[nH]c(-c6cc(OC)c(OC)c(OC)c6)nc5c4)nc3c2)CC1", "assay": "SRB", "conditions": "10 µM, 48 h", "endpoint": "growth percent", "result": "91.6%"}
{"SMILES": "Cc1cc(-c2ccccc2)n(-c2nc(-c3ccc(Cl)cc3)c3c(NC(=O)c4ccccc4)nnc-3[nH]2)n1", "assay": "SRB", "conditions": "10 µM, NCI60 single-dose screen, prostate cancer", "scale": "reference: untreated", "endpoint": "cell growth", "result": "103%"}
